{"data": "Published values collected from several papers", "note": "A part holds a random share of what one study measured."}
{"data": "Study 1", "target": "Histone acetyltransferase KAT6A, both winged helices, GST fusion (KAT6A, Homo sapiens, UniProt Q92794, residues 1-181)", "technique": "protein binding microarray", "molecule type": "double-stranded DNA, one strand shown", "sample": "in vitro", "concentration": "not given", "setting": "8-mer, flanks averaged, mean of 2 arrays, mostly near background", "reference": "not given", "direction": "higher = stronger binding", "Residues (chain)": "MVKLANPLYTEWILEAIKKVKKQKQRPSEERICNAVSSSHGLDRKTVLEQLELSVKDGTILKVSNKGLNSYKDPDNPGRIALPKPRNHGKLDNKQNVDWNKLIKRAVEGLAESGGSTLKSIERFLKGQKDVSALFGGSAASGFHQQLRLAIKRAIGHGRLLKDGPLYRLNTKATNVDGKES"}
{"Strand": "CACAAAGG", "E-score": -0.159}
{"Strand": "CTTCACAC", "E-score": -0.102}
{"Strand": "CCAGAACG", "E-score": 0.107}
{"Strand": "TAATACTA", "E-score": -0.0616}
{"Strand": "CACCACGA", "E-score": -0.167}
{"Strand": "CGGGTTGC", "E-score": 0.235}
{"Strand": "ACCATATA", "E-score": -0.137}
{"Strand": "AGCTGGCA", "E-score": -0.197}
{"Strand": "GCGTGGAC", "E-score": 0.203}
{"data": "Study 2", "target": "RNA binding protein fox-1 homolog 2, RRM domain, GST-SBP tag (RBFOX2, Homo sapiens, UniProt O43251-10, residues 100-194)", "technique": "RNA Bind-n-Seq", "molecule type": "RNA", "sample": "in vitro", "concentration": "365 nM", "setting": "natural RNA segment, single round, ends assumed", "reference": "no-protein control", "direction": "higher = stronger binding", "constant ends, left off below": "GGGAGUUCUACAGUCCGACGAUC … UGGAAUUCUCGGGUGCCAA", "Target sequence (chain)": "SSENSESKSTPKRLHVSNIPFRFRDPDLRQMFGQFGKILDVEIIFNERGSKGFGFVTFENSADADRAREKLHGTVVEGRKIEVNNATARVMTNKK"}
{"Strand": "GGCCUUUAAAAAGUGCCUAGUAGGUCAUUUGAGACCCAGAGAAAUGCACAGAGCUUGAGCAAAGGCAUGAAGUCCCUGACAUUGUUUUCCUUUUUGUCUCAGCAUAUAGU", "RBNS enrichment (R)": 0.755}
{"Strand": "UAACACUUGAUUUGCCUUCUAUAACCUAUUUAUUUCAAGUGUUCAUAUUUGAAUUUCUUUGGGAAGAAAGUAAAUCUGAUGGCUCACUGAUUUUUGAAAAGCCUGAAUAA", "RBNS enrichment (R)": 0.488}
{"Strand": "GCUCUCUUCUAAGUAGAAUGUUCAAUGUAACUAAAACUAAAAUUGCAUGUCAAAGAGACCUAGGUUCUUUCUUUCUUUCUUUCUCUCUUUCUUUCAGUUUGCUUUUGGUU", "RBNS enrichment (R)": 1.97}
{"Strand": "UUGCCACACCAAUCAGAGAGCCUAGAACAUCCCUGGGCAAGUGGAUGGCCCAGCAGGCAGGCACUGUGGCCCUUCUGUCCACCAGACCCACCUGGAGCCCGCUUCAAGCU", "RBNS enrichment (R)": 0.373}
{"Strand": "AGAGCUAGACGGGCUUCUGCAUGUGAAAUGCUGUAUUCCAUAGGAGUUAAAAGUGCUGACUGAGCAGUCUGACCCCCACGUGGGCACCUGCACUACCAGUUGUUAGAGGA", "RBNS enrichment (R)": 3.54}
{"Strand": "CUAUUAUUUGUUUUCAAUGUAUAAAGGCAGUAUUUCCCUUUUCAGGUUGCUGAGAAAUGUAAGAGGAGCUGAAGUACAUUGUAUGCAGUUACUGACUGCUUUAGGCAUAG", "RBNS enrichment (R)": 0.343}
{"Strand": "UUUGGGGUCAGUGUUACGAGGUGGCCUGUGGAGGUCUUCCGGUCCUGUUGGGAUCAUUUGUGAAUACAUUCUUUGCUCCUCUUAAGUGCUUGUUUCCUAACCGUGCAGUG", "RBNS enrichment (R)": 1.48}
{"Strand": "GUUUAUUUUAGACUUUCAAGGAAACAAAAGACUUUAGAGUCCUCUCUCUGUAAUUCUGCCCCACUCAUUUGUUUACCCUGGGUUUUAUACAGUUCUCUUCCUUCUCCCCU", "RBNS enrichment (R)": 0.705}
{"Strand": "UCCUGGCCAGCCCCAGCUCAUCACAUUGGGUCCACAGGCAUCCCAGCAUGGGUCCCUGCGCCUCCCUCUCAAGGAGUUGAUUUUUUUUCCCCUCAGUUUCCCCACACCCA", "RBNS enrichment (R)": 0.661}
{"Strand": "CUUUAGUAACUGCUCCUAAACUUUUUAACUCUAAAGGAGCGUGGAAAGCCCGCAUCACAGUGUUCAGUGACUGCUCUGCUCCAUUCUUUCUCCUCUCCAGUUUCUCUCUU", "RBNS enrichment (R)": 0.711}
{"Strand": "CCAUUUAUUUCAGAAGGCUGAACAUAAGAGGUUUCUACUCAGCAAUACUUAGAUGUCUAACUGUUUAAUUGCUACAGAGCUUUAUAGAUAUUUAGAGAAAAGACUUAAUC", "RBNS enrichment (R)": 0.757}
{"data": "Study 3", "target": "Prothrombin, mature alpha-thrombin (F2, Homo sapiens, UniProt P00734)", "technique": "aptamer microarray, sandwich", "molecule type": "DNA with 2'F-ANA", "sample": "in vitro", "concentration": "200 nM", "setting": "whole 15-mer aptamer, many near background", "with": "Cy3 exosite-II aptamer, 400 nM", "direction": "higher = stronger binding", "strand": "GGTTGGTGTGGTTGG"}
{"Modification": "2'F-ANA at 2 5 8 9 10 11 13", "mean fluorescence intensity": "49.3 a.u."}
{"Modification": "2'F-ANA at 1 2 3 4 5 6 8 10 13 15", "mean fluorescence intensity": "48.1 a.u."}
{"Modification": "2'F-ANA at 4 5 8 10 11 12 13", "mean fluorescence intensity": "44.2 a.u."}
{"Modification": "2'F-ANA at 2 3 4 7 9 10 11 12 13", "mean fluorescence intensity": "302 a.u."}
{"Modification": "2'F-ANA at 5 9 11 12 14", "mean fluorescence intensity": "63.3 a.u."}
{"Modification": "2'F-ANA at 1 5 6 7 11 12 14 15", "mean fluorescence intensity": "46.8 a.u."}
{"Modification": "2'F-ANA at 3 6 8 9 10 12 13 14 15", "mean fluorescence intensity": "378 a.u."}
{"Modification": "2'F-ANA at 2 3 5 7 10 11", "mean fluorescence intensity": "70.8 a.u."}
{"Modification": "2'F-ANA at 1 5 8 10 12 14", "mean fluorescence intensity": "44.1 a.u."}
{"data": "Study 4", "Molecule": "PhoQ, residues 284 288 289 292 302 303 GANMMA", "technique": "Sort-seq", "refers to": "YFP reporter", "sample": "E. coli", "setting": "PhoQ-PhoP variant library", "with": "10 µM Mg2+", "reference": "high Mg2+ state", "direction": "higher = stronger signaling"}
{"target": "PhoP, residues 12 14 15 18 19 HHYTI (Escherichia coli, UniProt P23836)", "fold induction": 8.66}
{"target": "PhoP, residues 12 14 15 18 19 SFCSL (Escherichia coli, UniProt P23836)", "fold induction": 15.9}
{"target": "PhoP, residues 12 14 15 18 19 AYFRS (Escherichia coli, UniProt P23836)", "fold induction": 3.16}
